Assay results collected from several papers.
Every numbered part comes from another study and shows a few of its results, in no order.

Block 1 — method: RNA Bind-n-Seq; molecule type: RNA; sample: in vitro; tested at: not given; setting: RNA with constant flanks, ends assumed; baseline: input RNA pool; reading: higher = stronger binding
Target: RING finger protein unkempt homolog, zinc fingers 1-6, GST-SBP tag (UNK, Homo sapiens, UniProt Q9C0B0, residues 30-357)
UniProt Q9C0B0, sequence (30-357, looked up): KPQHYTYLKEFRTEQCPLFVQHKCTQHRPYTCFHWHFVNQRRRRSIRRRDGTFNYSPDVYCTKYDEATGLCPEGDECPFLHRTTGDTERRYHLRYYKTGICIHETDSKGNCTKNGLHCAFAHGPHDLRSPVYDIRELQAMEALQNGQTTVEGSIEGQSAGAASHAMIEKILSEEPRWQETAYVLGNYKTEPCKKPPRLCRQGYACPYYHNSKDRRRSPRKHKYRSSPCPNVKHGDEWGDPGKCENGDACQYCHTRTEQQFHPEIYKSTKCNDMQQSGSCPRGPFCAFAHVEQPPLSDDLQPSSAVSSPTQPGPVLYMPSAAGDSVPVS
Shared flanks, not repeated: GGGAGUUCUACAGUCCGACGAUC … CAACAGAGGAUUGAGCAUCA
| Strand | bound/input enrichment |
| --- | --- |
| GAGAAAAUCAAGAUCAAGCCAGCCCCGUACCCCAUGGGAAGCAGCCAUGCUUCCGCCAGCCGCAUCAGCUUUAACCCCAGCCCUGAGGAGCCGGCCUAUGAUGGCCCAAGCACCAGCAGU | 0.128 ratio |
| UACUUUACAAUCAUCCACACUGUGGUCUGUGGAUCUUUAAUAUAUAUAUAUAUAAAACAACCGCCGUCAUUUUUAAGUAUAUUCUGAAACCUUUGCAAAUUUUAAGAGAAGAGUCGAAGC | 1.67 ratio |
| ACCACUGGGACACUUCCACCACCAACUUUGUCUGCCUAUCAGCAUUCAUCUACCUUCCGCAACCGAAACUUUGCGACCACCUCACCUUUGGUGCUUCAAGAUUCAUCUUUUAACACUACA | 0.211 ratio |
| ACACACACCCUAGAAUGCUCGCUUUGCAGCACAGGCAGGAGCAGCAGCAAGCAGCAGGUGUUCCGAUCCUUGGUUUUGAGAAAUUCCCCCCUAAGUAUGUGGCAAUAAGUAUAAGCCACU | 0.14 ratio |
| GUAUUGAACUUCACAGCCUUGCUCAUUGAGUACAGCUUUUCUCGGCAUCUGUACAGUUCCACCGAGCAUUUGACAACUUUAUUGGCUUCCUCUGAUAUGCAAGUGGUGCUGGCAGUCCUU | 0.152 ratio |
| AGAGUCAAAGUUCUUCAAGAUUACACUGGCCUUAUACUCUUCCUGGAAGAGGACCACUACUCCGCCCCAGACUUUUACCAUGUCUUCAAAAAGAUGUGGAAACUGAAGCAGCAGGAGUGU | 0.172 ratio |
| CUCAGGAUGUCUUCAUCACAUUUUGCCAGUCGACACAGGAAGGAUAUAAGUACUGAAAUGAUCCGAACUAAAAUUGCUCAUAGGAAAUCACUGUCUCAGAAAGAAAAUAGACAUAAGGAA | 1.16 ratio |
| AGAGCAUCAAGGGAACACCCAUCUGUCCAGGAGAAGAAGAAGUCCACCAUCUGGCAGUUCUUCCGUCGCCUCUUCAGCUCCUCAUCUAGCCCCCCUCCGGCCAAACGAUCCUACCCAUCU | 0.39 ratio |

Block 2 — cell line: HEK-293T; read-out: pseudovirus infection; method: FDA-approved drug library screen; organism: VSV pseudotyped with SARS-CoV-2 spike; tested at: 10 µM; time: 16 h; baseline: vehicle-treated
| Compound | GFP-positive cells [%] |
| --- | --- |
| CO[C@H]1/C=C/O[C@@]2(C)Oc3c(C)c(O)c4c(O)c(c5c(nc6cc(C)ccn65)c4c3C2=O)NC(=O)/C(C)=C\C=C\[C@H](C)[C@H](O)[C@@H](C)[C@@H](O)[C@@H](C)[C@H](OC(C)=O)[C@@H]1C | 91.4 |
| Nc1nc(F)nc2c1ncn2[C@@H]1O[C@H](COP(=O)(O)O)[C@@H](O)[C@@H]1O | 117 |
| Cc1cccc(Nc2ccncc2S(=O)(=O)NC(=O)NC(C)C)c1 | 72.2 |

Block 3 — mode: inhibitor; tested at: 20 µM
Target: Replicase polyprotein 1ab, nsp13 helicase (rep, Severe acute respiratory syndrome coronavirus 2, UniProt P0DTD1)
| Compound | inhibition [%] |
| --- | --- |
| Cc1cc(C(=O)N2Cc3cnn(C)c3Nc3ccccc32)ccc1CNC(=O)N1CCC[C@H]1C(=S)N1CCCN(C)CC1 | 5.12 |
| O=C1OC2(c3cc(I)c(O)c(I)c3Oc3c2cc(I)c(O)c3I)c2c(Cl)c(Cl)c(Cl)c(Cl)c21 | -2.61 |
| CCn1ccnc1CC1COc2ccccc2O1 (stereo not shown) | 8.34 |
| O=C(NS(=O)(=O)c1ccc(Br)s1)c1ccc(Cl)cc1Cl | 1.13 |
| NC(N)=NCCNS(=O)(=O)c1cccc2cnccc12 | -2.95 |
| Cc1cn([C@@H]2C[C@@H](O)[C@H](CO)O2)c(=O)[nH]c1=O | 6.18 |
| COc1cc(C[C@H]2C(=O)OC[C@@H]2Cc2ccc(OC)c(OC)c2)ccc1O | 4.85 |
| CC[C@H]1[C@@H](O)[C@@H]2[C@H](CC[C@]3(C)[C@@H]([C@H](C)CCOS(=O)(=O)O)CC[C@@H]23)[C@@]2(C)CC[C@@H](O)C[C@@H]12 | 7.05 |
| O=C(NCCN1CCC2(CC1)C(=O)NCN2c1cccc(F)c1)c1ccc(F)c(F)c1 | 12.2 |
| CC[C@H]1OC(=O)C[C@@H](O)[C@H](C)[C@@H](O[C@@H]2O[C@H](C)C[C@H](N(C)C)[C@H]2O)[C@@H](CC=O)C[C@@H](C)C(=O)/C=C/[C@]2(C)O[C@H]2[C@@H]1C | 1.88 |
| CC(C)[C@H](CO)Nc1nc(Nc2cccc(Cl)c2)c2ncn(C(C)C)c2n1 | -6 |
| Cc1c(Cl)cccc1S(=O)(=O)Nc1nc(CC(=O)N2CCN(C)CC2)cs1 | 3.52 |
| CCc1ccc(C(=O)C(C)CN2CCCCC2)cc1 (stereo not shown) | -3.27 |
| Cc1cccc(C(C)c2c[nH]cn2)c1C (stereo not shown) | 2.58 |
| Cc1cc(C(C)(C)C)cc(C)c1CC1=NCCN1 | -6.71 |
| CCN(CC)S(=O)(=O)c1ccc(C(=O)O)cc1 | 8.64 |
| CC1(C)CC(=O)c2c(C(F)(F)F)nn(-c3ccc(C(N)=O)c(N[C@H]4CC[C@H](O)CC4)c3)c2C1 | 6.24 |
| CCCC(CCC)C(=O)NCC(N)=O | -10.5 |
| CC1(C)S[C@@H]2[C@H](NC(=O)C(C(=O)O)c3ccccc3)C(=O)N2[C@H]1C(=O)O (stereo partly shown) | 1.94 |
| CN(C)CC(=O)Nc1ccc2[nH]c(=O)c3ccccc3c2c1 | 7.48 |
| CN(C)C(=O)n1nnnc1Cc1ccc(-c2ccccc2)cc1 | 5.02 |
| C=C1/C(=C\C=C2/CCC[C@]3(C)[C@@H]([C@H](C)/C=C/[C@H](C)C(C)C)CC[C@@H]23)C[C@@H](O)C[C@@H]1O | -4.92 |
| Cc1c(Cc2ccc3ccccc3n2)c2cc(F)ccc2n1CC(=O)O | 2.04 |
| O=C(CN1C(=O)C2(CCCC2)NC[C@H]1c1cc(F)cc(F)c1)Nc1ccc2c(c1)C[C@@]1(C2)C(=O)Nc2ncccc21 | 5.83 |
| Cc1[nH]c2ccccc2c1C[C@@H](NC(=O)[C@@H](N)Cc1c[nH]cn1)C(=O)N[C@@H](C)C(=O)N[C@@H](Cc1c[nH]c2ccccc12)C(=O)N[C@H](Cc1ccccc1)C(=O)N[C@@H](CCCCN)C(N)=O | 2.64 |

Block 4 — method: protein binding microarray; molecule type: double-stranded DNA, one strand shown; sample: in vitro; tested at: not given; baseline: not given; reading: higher = stronger binding
Target: Histone acetyltransferase KAT6A, winged helix 2, GST fusion (KAT6A, Homo sapiens, UniProt Q92794, residues 85-181)
Setting: 8-mer, flanks averaged, mean of 2 arrays, mostly near background
Target sequence (chain): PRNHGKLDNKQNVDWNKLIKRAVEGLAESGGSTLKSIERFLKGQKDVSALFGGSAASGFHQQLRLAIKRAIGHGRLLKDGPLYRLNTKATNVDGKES
| Strand | E-score |
| --- | --- |
| TATAAGGA | 0.123 |
| GGCACTAC | -0.0291 |
| AATTGCGC | 0.0252 |
| ACACGGTC | 0.011 |
| AAAAGTTT | -0.0945 |
| AACCCCCA | -0.185 |
| AATTGCCA | -0.067 |
| AGTGAGGC | 0.0189 |

Block 5 — read-out: enzyme activity; mode: inhibitor; tested at: 20 µM; setting: hit confirmation
Target: Replicase polyprotein 1ab, main protease (rep, Severe acute respiratory syndrome coronavirus 2, UniProt P0DTD1)
| Structure (SMILES) | inhibition [%] |
| --- | --- |
| CC(C)=CCC/C(C)=C/CC/C(C)=C/CC/C(C)=C/CC1=C(C)C(=O)c2ccccc2C1=O | 22.7 |
| O=C(CCl)c1ccccc1 | 110 |
| COc1cc(CC2NCCc3cc(O)c(O)cc32)cc(OC)c1OC (stereo not shown) | 55.4 |

Block 6 — method: RNA Bind-n-Seq; molecule type: RNA; sample: in vitro; tested at: 365 nM; baseline: no-protein control; reading: higher = stronger binding
Target: RNA binding protein fox-1 homolog 2, RRM domain, GST-SBP tag (RBFOX2, Homo sapiens, UniProt O43251-10, residues 100-194)
Setting: natural RNA segment, single round, ends assumed
Shared flanks, not repeated: GGGAGUUCUACAGUCCGACGAUC … UGGAAUUCUCGGGUGCCAA
Residues (chain): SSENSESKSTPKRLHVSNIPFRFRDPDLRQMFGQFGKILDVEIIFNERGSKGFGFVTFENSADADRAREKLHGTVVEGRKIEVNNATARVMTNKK
| Strand | RBNS enrichment (R) |
| --- | --- |
| GUCCACUGAGCCACAGUACCAGCCCGGGGAGAACCUUAGGGACUGUGUGCGCAGAACUGUCACCUCUAGGCUUCCGGGUGUUGCCUCCGAUGCACCUGCCUCCCUUCAUC | 0.299 |
| UUCCUGACCCAAGAGACACCCUAUACAUGAGGGCCCAGCUCUUUACCUCUGGGGACAGCUGGCAUGCCUUUGGCUUUGUGUAGAGUAGGGUGGUGAGACCCUUCCUGGCU | 0.49 |
| UAGAAGCAGACGAUCUCGGGCUCCAAGUAUUUCAGAAUGAUUUAAAAAGUCAUGCCACAGGAAGGGUCUAUUGCAGAAUUUCAAGUUCUGUUUAUAGUAAAAAGGAAGAG | 0.362 |
| GCUAGCAAAGACUUGUGUGAUGCCUCCGAAGGGGCUCUGAGUUCUGGGGUGGGAGUUUUGCUCUCUGUCAGGUGUGAUAAAAUGUUGAACCCUCCCCACCACCACUUUUU | 0.85 |
| AAAUGACCUCUUCCCCAGACCAGGACUGGGGCUUUACCCCAGAGCCUCGCCUCGCCGCCGUGAGCAGGCAGAGGAUUUGCACACGCCGAGCAGGGAAUGGCUUUCUUGGC | 0.324 |
| ACCAUAGCAUAACAAAGGCUGCUCUCUGUGCUAGUAGCAGUGCUCAGCAGCAUGCACUGUUGAGCUUUUCUGACGCUGUGUCAGAAUGGCACUAGUUCAGUUUAUAUCCC | 2.28 |
| UGGAAUUAGCACCUGCCUGUCCUUCCUGGGCCCCUCCUUGCCACAUCAUGAGCUGAGGUGGGACCACAGUCCCCAGGCUGCAUCGGCCUGCCUGUGUUUCCCUCUUAGGU | 0.443 |
| AAUCCCAGGAACCACUAGCAGUAGUGGGGCGCCACCAAUGUAACAUGAGCACAGGUGCCUCAUGGCAAACAUGGCUGGCAUGUUCAACUGCAUAAUGCUCUGGCACUGUA | 0.435 |

Excerpt of the above (block 3):
| Compound | inhibition [%] |
| --- | --- |
| Cc1cc(C(=O)N2Cc3cnn(C)c3Nc3ccccc32)ccc1CNC(=O)N1CCC[C@H]1C(=S)N1CCCN(C)CC1 | 5.12 |
| NC(N)=NCCNS(=O)(=O)c1cccc2cnccc12 | -2.95 |
| O=C(NCCN1CCC2(CC1)C(=O)NCN2c1cccc(F)c1)c1ccc(F)c(F)c1 | 12.2 |
| COc1cc(C[C@H]2C(=O)OC[C@@H]2Cc2ccc(OC)c(OC)c2)ccc1O | 4.85 |
